Measured values pooled from the literature.
Compare with care: the assays were run in different laboratories. Several values in a cell are separate wells, animals, samples, runs or records. ± marks the error that the study gave. Converted amounts (≈) assume the structure as drawn.
gag-pol integrase: Gag-Pol polyprotein, integrase (gag-pol, Human immunodeficiency virus 1, UniProt P12497)
BCHE: Cholinesterase (BCHE, Homo sapiens, UniProt P06276)
Sequence of UniProt P06276 (whole entry, looked up): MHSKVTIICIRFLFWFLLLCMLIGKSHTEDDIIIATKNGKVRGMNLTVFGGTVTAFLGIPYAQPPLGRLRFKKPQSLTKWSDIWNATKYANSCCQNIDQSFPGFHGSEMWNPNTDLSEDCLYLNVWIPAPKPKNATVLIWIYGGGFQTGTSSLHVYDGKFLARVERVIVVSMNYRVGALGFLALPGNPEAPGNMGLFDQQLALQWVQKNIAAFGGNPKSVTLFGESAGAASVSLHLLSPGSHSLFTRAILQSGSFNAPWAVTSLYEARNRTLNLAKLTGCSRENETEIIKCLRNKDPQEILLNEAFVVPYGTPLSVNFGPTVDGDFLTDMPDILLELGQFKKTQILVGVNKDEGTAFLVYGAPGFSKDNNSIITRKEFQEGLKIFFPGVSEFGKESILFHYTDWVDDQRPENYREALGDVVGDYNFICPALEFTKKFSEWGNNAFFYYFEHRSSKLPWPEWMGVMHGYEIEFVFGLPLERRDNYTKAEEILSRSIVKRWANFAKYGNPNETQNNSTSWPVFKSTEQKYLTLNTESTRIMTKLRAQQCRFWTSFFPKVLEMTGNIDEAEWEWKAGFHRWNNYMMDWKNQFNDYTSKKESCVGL

Compound	tested on	assay	system	conditions	scale	endpoint	result
OC(c1cc(C(F)(F)F)nc2c(C(F)(F)F)cccc12)C1CCCCN1 (stereo not shown)	Plasmodium falciparum		Dd2			IC50	0.033 µM
CC/N=c1/scc(-c2cc(OC)ccc2OC)n1/N=C(\C)c1ccco1	gag-pol integrase	strand transfer activity, inhibitor		wild-type integrase		IC50	> 100 µM
Nc1ncnc2c1ncn2[C@@H]1O[C@@H]2COP(=O)(O)O[C@H]3[C@@H](O)[C@H](n4cnc5c(=O)[nH]cnc54)O[C@@H]3COP(=O)(O)O[C@H]2[C@H]1O	HFF-1	RNA sequencing, item: Diseases of glycosylation		downregulated pathway	reference: Zika virus alone	pathway fold enrichment	5.86
CC(C)C[C@@H]1NC(=O)[C@H](CC(C)C)NC(=O)[C@H](Cc2c[nH]c3ccccc23)NC(=O)[C@H](CO)NC(=O)[C@H](Cc2c[nH]c3ccccc23)NC(=O)[C@@H]2CCCN2C(=O)[C@H](CC(C)C)NC(=O)[C@H](Cc2c[nH]cn2)NC(=O)[C@@H]2CCCN2C(=O)[C@H](CC(N)=O)NC(=O)[C@H](C)NC(=O)[C@H](Cc2ccc(O)cc2)NC(=O)[C@H](CS)NC(=O)[C@H](CCCCNC(=O)CN2CCN(CC(=O)O)CCN(CC(=O)O)CCN(CC(=O)O)CC2)NC1=O [lutetium-177 labelled]		radio-HPLC	human serum	24 h		remaining intact	> 97%
COc1ccccc1C1CN(CCNC(=O)c2nc(C)c[nH]2)Cc2ccccc2O1 (stereo not shown)	Plasmodium falciparum	parasite growth, SYBR Green	3D7 wild type	72 h		EC50	0.873 ± 0.4 µM
CC(C)n1cnc2c(NCCc3ccc(O)cc3)nc(-c3csc4ccccc34)nc21	BCHE	inhibitor		with Triton		IC50	18.8 ± 3.2 µM
C#CCN(C)[C@H](C)Cc1ccccc1		footprint test	MPTP-induced Parkinson's disease mouse model	10 mg/kg, mean of three trials		corridor crossing time	7.52 s and 5.62 s and 4.27 s and 6.52 s and 7.98 s and 5.33 s and 5.93 s
CCC(c1ccccc1)c1nn2c(-c3cccs3)nnc2s1 (stereo not shown)	Plasmodium falciparum	parasite growth, SYBR Green	3D7 wild type	72 h		EC50	0.116 ± 0.071 µM
c1ccc(C(NCCNC(c2ccccc2)c2ccccc2)c2ccccc2)cc1	GABAB receptor, rat	binding		10 µM, Eurofins selectivity panel		inhibition	-2%
COc1c(CCC[P+](c2ccccc2)(c2ccccc2)c2ccccc2)cc2c(c1OC)OCO2.[I-]	IGROV-1	SRB				GI50	-5.99 log M
CC[C@H]1CN2CC[C@H]1C[C@H]2[C@H](O)c1ccnc2ccc(OC)cc12	BCHE	inhibitor		with Triton		IC50	12.5 ± 1.59 µM
C[C@@H](O)[C@@H](CO)NC(=O)[C@@H](CCCNC(=N)N)NC(=O)[C@@H]1CCCN1C(=O)[C@@H]1CSSC[C@H](NC(=O)[C@H](Cc2ccccc2)NC(=O)CN2CCN(CC(=O)O)CCN(CC(=O)O)CCN(CC(=O)O)CC2)C(=O)N[C@@H](Cc2ccc(O)cc2)C(=O)N[C@@H](Cc2ccccc2)C(=O)N[C@@H](CCC(N)=O)C(=O)N[C@@H](CC(N)=O)C(=O)N1 [gallium-68 labelled]			healthy Wistar rat, pancreas	intravenous, 8 MBq, 30 min, individual animals		tissue uptake	0.3 %ID/g
COc1ccc(-n2ccnc2SCC(=O)Nc2cccc(C(F)(F)F)c2)c(OC)c1	Plasmodium falciparum	parasite growth	Dd2			EC50	0.092 ± 0.033 µM
CC(C)C[C@H]1NC(=O)[C@H]([C@@H](C)O)NC(=O)[C@@H](CCCN)NC(=O)[C@H](CCCNC(=N)N)NC(=O)[C@@H](Cc2ccccc2)NC1=O	Acanthamoeba castellanii			trophozoites		IC50	12.1 µg/mL
Cc1cc(Nc2ccc(Cl)c(Cl)c2)n2nc(C)nc2n1	Plasmodium falciparum	parasite growth	Dd2			EC50	0.104 ± 0.032 µM
CCCCC1(CCCC)CN(c2ccccc2)c2cc(SC)c(OCC(=O)N[C@@H](C(=O)NCC(=O)O)c3ccccc3)cc2S(=O)(=O)C1		item: HDL cholesterol	human, serum	5 mg once daily, day 7		serum HDL-C	47.6 mg/dL
COc1ccc(CCN(C)CCCC(C#N)(c2ccc(OC)c(OC)c2)C(C)C)cc1OC (stereo not shown)	Plasmodium falciparum		Dd2			IC50	3.98 µM
CC[C@H](C)[C@H](NC(=O)[C@H](C)NC(=O)[C@H](CCCCN)NC(=O)[C@H](CC(C)C)NC(=O)[C@H](C)NC(=O)[C@@H](NC(=O)[C@H](Cc1c[nH]cn1)NC(=O)[C@H](CC(C)C)NC(=O)[C@@H](NC(=O)[C@@H](NC(=O)[C@H](CCCCN)NC(=O)[C@H](C)NC(=O)[C@H](C)NC(=O)[C@H](CO)NC(=O)[C@H](CCCCN)NC(=O)[C@H](Cc1ccccc1)NC(=O)[C@@H](NC(=O)[C@H](CCCCN)NC(=O)[C@H](CC(C)C)NC(=O)[C@H](Cc1ccccc1)NC(=O)[C@H](CO)NC(=O)[C@H](CCCCN)NC(=O)[C@H](Cc1c[nH]c2ccccc12)NC(=O)[C@H](CCCCN)NC(C)=O)[C@@H](C)O)[C@@H](C)O)C(C)C)[C@@H](C)O)C(=O)N[C@@H](CO)C(=O)N[C@@H](CO)C(N)=O	Citrobacter			20 strains		MIC90	16 µg/mL (≈ 5.45 µM)
CC(C)[C@@H]1NC(=O)[C@@H](CC(N)=O)NC(=O)[C@H](Cc2ccccc2)NC(=O)[C@@H](CCCN)NC(=O)[C@H](CCCN)NC(=O)[C@H]([C@@H](C)O)NC(=O)[C@@H](C(C)C)NC(=O)[C@H](C(C)C)NC(=O)[C@@H]([C@H](C)O)NC(=O)[C@@H](C(C)C)NC1=O	Naegleria fowleri			trophozoites		IC50	> 16 µg/mL
CC[C@H](C)[C@@H]1NC(=O)[C@@H]2CCCN2C(=O)[C@H](CC(C)C)NC(=O)[C@H](CC(C)C)NC(=O)CNC(=O)[C@@H](NC(=O)[C@@H](NC(=O)[C@H](CC(=O)O)NC(=O)CNC(=O)[C@@H](NC(=O)[C@H](C)NC(=O)CNC(=O)[C@H](CCCCN)NC(=O)[C@H](CC(C)C)NC(=O)[C@H](CC(C)C)NC(=O)[C@H](CCCCN)NC(=O)CNC(=O)[C@@H](NC(=O)[C@@H](N)CC(C)C)C(C)C)C(C)C)C(C)C)CSSC[C@@H](C(=O)O)NC1=O		RNA-seq, item: Il27	mouse, traumatic brain injury model, frontal cortex and hippocampus	dose not given	reference: TBI alone	log2 fold change	-4.07

Compound	tested on	assay	system	conditions	scale	endpoint	result
O=C(NC1CCCCCCC1)c1cc(-c2ccncc2F)c[nH]1	Vero			48 h		IC50	> 64 µg/mL
CCN(CC)[C@@H]1CCc2c(F)ccc(O)c2C1	Plasmodium falciparum		GB4			IC50	0.316 µM
COc1cc(CCC[P+](c2ccccc2)(c2ccccc2)c2ccccc2)c(OC)c2c1OCO2.[I-]	SR	SRB				GI50	-5.96 log M
COc1c(C)c2c(c(O)c1C/C=C(\C)CCC(=O)O)C(=O)OC2	liver cancer cell lines	cell proliferation		average over lines		IC50	0.562 µM
C[C@@H](O)[C@@H]1NC(=O)[C@@H](CCCCN)NC(=O)[C@H](CCCN)NC(=O)[C@@H](CCCN)NC(=O)[C@H](CO)NC(=O)[C@H](Cc2c[nH]c3ccccc23)NC(=O)[C@@H](Cc2c[nH]c3ccccc23)NC1=O	Naegleria fowleri			trophozoites		IC90	> 16 µg/mL
O=C(CCCN1CC=C(n2c(=O)[nH]c3ccccc32)CC1)c1ccc(F)cc1	Plasmodium falciparum		W2			IC50	3.16 µM
O=C1NC(=O)C(C2C3=C(CCCC3=O)Oc3ccc([N+](=O)[O-])cc32)C(=O)N1 (stereo not shown)	mouse preadipocytes	qPCR, item: aP2		IC20, 14 days, adipogenic induction	reference: untreated cells	mRNA level	decreased
Cc1ccccc1NC(=O)Nc1ccc(CC(=O)N[C@@H](CCCCNC(=O)/C=C/c2cccnc2)C(=O)N[C@@H](CCCC(=O)O)C(=O)NC2(C(=O)NCCOCCOCCOCCOCC(=O)N[C@@H](CCCCNC(=S)Nc3ccc(CCCN(CCN4CCN(CP(=O)(O)O)CCN(CP(=O)(O)O)CC4)CC(=O)O)cc3)C(N)=O)CCCCC2)cc1 [gallium-68 labelled]		shake flask	octanol/PBS	pH 7.4		log D	-1.86 ± 0.02
Nc1ccn(C[C@@H](CO)OCP(=O)(O)O)c(=O)n1	Fowlpox virus	viral infection	CEF	0.7812 µM	reference: untreated	infection	101% and 95.2% and 104%
CCCOc1ccccc1-c1nc2sc3c(c2c(=O)[nH]1)CCN(C)C3	Plasmodium falciparum	parasite growth, SYBR Green	3D7 wild type	72 h		EC50	4.56 ± 0.06 µM
CC(=O)c1ccc(/N=N/c2ccc(C[P+](c3ccccc3)(c3ccccc3)c3ccccc3)cc2)cc1	gag-pol integrase	3'-processing activity, inhibitor		wild-type integrase		IC50	> 100 µM
CCc1cccc(N(C)C(=N)Nc2cccc3ccccc23)c1	Plasmodium falciparum		7G8			IC50	3.16 µM
O=C(NC1CCCCCCC1)c1cc(-c2ccc(F)cc2F)c[nH]1	Vero			48 h		IC50	16.9 µg/mL
COC(=O)[C@@H]1[C@H]2C[C@H]3c4[nH]c5ccccc5c4CCN3C[C@@H]2CC[C@@H]1O	Plasmodium falciparum		D10			IC50	3.98 µM
C[C@H]1O[C@@H](O[C@H]2CC[C@@]3(C)[C@@H](CC[C@]4(C)[C@@H]3C=C[C@]35OC[C@@]6(CCC(C)(C)C[C@H]63)[C@@H](O)C[C@]54C)[C@]2(C)CO)[C@H](O)[C@@H](O[C@@H]2O[C@H](CO)[C@@H](O)[C@H](O)[C@H]2O)[C@H]1O			Mus musculus, pair-fed, AAV8-TBG-SIRT1 shRNA hepatic SIRT1 knockdown, plasma	oral, high dose, 5 h		total cholesterol	2.6 mM and 2.77 mM and 2.59 mM and 2.48 mM and 2.29 mM
O=C(Nc1cccc(CN2CCN(C(=O)c3cccc(Cl)c3)CC2)c1)c1cccs1	Plasmodium falciparum	parasite growth, SYBR Green	3D7 DHODH E182D	72 h		EC50	0.846 ± 0.12 µM
CCCN(CCC)[C@H]1CCc2c(F)ccc(O)c2C1	Plasmodium falciparum		Dd2			IC50	1.58 µM
C=C1CC[C@@]2(O)[C@H]3Cc4ccc(O)c5c4[C@@]2(CCN3CC2CC2)[C@H]1O5	H+/organic cation antiporter	cell uptake	hCMEC/D3			Vmax	699 pmol/min/mg protein
Fc1ccc(C(OCCCc2c[nH]cn2)c2ccc(F)cc2)cc1	Plasmodium falciparum		HB3			IC50	2 µM
C[C@@H](O)[C@@H]1NC(=O)[C@H](Cc2ccccc2)NC(=O)[C@@H](Cc2ccccc2)NC(=O)[C@H]([C@@H](C)O)NC(=O)[C@@H](CCCN)NC(=O)[C@H](CCCNC(=N)N)NC(=O)[C@@H](CCCN)NC1=O	Acanthamoeba castellanii			trophozoites		IC50	> 16 µg/mL

Excerpt of the above:
Compound	tested on	assay	system	conditions	scale	endpoint	result
O=C1NC(=O)C(C2C3=C(CCCC3=O)Oc3ccc([N+](=O)[O-])cc32)C(=O)N1 (stereo not shown)	mouse preadipocytes	qPCR, item: aP2		IC20, 14 days, adipogenic induction	reference: untreated cells	mRNA level	decreased
Cc1ccccc1NC(=O)Nc1ccc(CC(=O)N[C@@H](CCCCNC(=O)/C=C/c2cccnc2)C(=O)N[C@@H](CCCC(=O)O)C(=O)NC2(C(=O)NCCOCCOCCOCCOCC(=O)N[C@@H](CCCCNC(=S)Nc3ccc(CCCN(CCN4CCN(CP(=O)(O)O)CCN(CP(=O)(O)O)CC4)CC(=O)O)cc3)C(N)=O)CCCCC2)cc1 [gallium-68 labelled]		shake flask	octanol/PBS	pH 7.4		log D	-1.86 ± 0.02
Nc1ccn(C[C@@H](CO)OCP(=O)(O)O)c(=O)n1	Fowlpox virus	viral infection	CEF	0.7812 µM	reference: untreated	infection	101% and 95.2% and 104%
